Measurements collected from several papers.
Each line is one published result; not all experiments were run side by side. ± gives the spread as reported. ≈ marks a conversion by molar mass, not a printed value.
Organism: Escherichia coli

Molecule	assay	test system	conditions	scale	endpoint	value
CC(C)C[C@H](NC(=O)[C@H](C)NC(=O)[C@H](CCCCN)NC(=O)[C@H](Cc1c[nH]c2ccccc12)NC(=O)[C@H](CC(C)C)NC(=O)[C@H](CC(C)C)NC(=O)[C@H](C)NC(=O)[C@H](CC(C)C)NC(=O)[C@H](CCCCN)NC(=O)[C@H](C)NC(=O)[C@@H]1CCCN1C(=O)[C@H](C)NC(=O)[C@H](CC(C)C)NC(=O)[C@H](CCCCN)NC(=O)[C@H](CC(C)C)NC(=O)[C@H](CCCCN)NC(=O)[C@@H](N)CCCCN)C(=O)N[C@@H](C)C(=O)N[C@@H](CC(C)C)C(=O)N[C@@H](CCCCN)C(=O)N[C@@H](CC(C)C)C(=O)N[C@@H](CCCCN)C(=O)N[C@@H](CCCCN)C(=O)N[C@@H](C)C(N)=O	broth microdilution	TOP10	overnight, 37 °C	–	MIC50	0.46 ± 0.11 µM
CC(C)(O/N=C(\C(=O)N[C@@H]1C(=O)N2C(C(=O)[O-])=C(C[n+]3ccccc3)CS[C@H]12)c1csc(N)n1)C(=O)O	–	drug-resistant	64 µg/mL, together with: TS-CATH 16 µg/mL	–	time to complete kill	12 h
GIGKWLHSAKKFGKAFVGEIMNS-NH2 (C-amide)	bacterial growth, broth microdilution	peptide, TOP10, Mueller-Hinton broth	overnight, 37 °C	–	MIC50	1.25 ± 0.28 µg/mL
CC[C@H](C)[C@H](NC(=O)[C@H](Cc1ccc(O)cc1)NC(=O)[C@@H](NC(=O)[C@@H]1CCCN1C(=O)[C@H](CCCNC(=N)N)NC(=O)[C@H](CC(N)=O)NC(=O)[C@H](CC(N)=O)NC(=O)CN)C(C)C)C(=O)N1CCC[C@H]1C(=O)N[C@@H](CCC(N)=O)C(=O)N1CCC[C@H]1C(=O)N[C@@H](CCCNC(=N)N)C(=O)N1CCC[C@H]1C(=O)N1CCC[C@H]1C(=O)N[C@@H](Cc1c[nH]cn1)C(=O)N1CCC[C@H]1C(=O)N[C@@H](CCCNC(=N)N)C(=O)N[C@@H](CC(C)C)C(N)=O	–	DH5α	24 h, 37 °C	–	MBC	10 µM (≈ 21.1 µg/mL)
CC(C)C[C@H](NC(=O)[C@H](C)NC(=O)[C@H](CCCCN)NC(=O)[C@H](Cc1c[nH]c2ccccc12)NC(=O)[C@H](CC(C)C)NC(=O)[C@H](CC(C)C)NC(=O)[C@H](C)NC(=O)[C@@H]1CCCN1C(=O)[C@H](CCCCN)NC(=O)[C@H](C)NC(=O)[C@H](CC(C)C)NC(=O)[C@H](C)NC(=O)[C@H](CC(C)C)NC(=O)[C@H](CCCCN)NC(=O)[C@H](CC(C)C)NC(=O)[C@H](CCCCN)NC(=O)[C@@H](N)CCCCN)C(=O)N[C@@H](C)C(=O)N[C@@H](CC(C)C)C(=O)N[C@@H](CCCCN)C(=O)N[C@@H](CC(C)C)C(=O)N[C@@H](CCCCN)C(=O)N[C@@H](CCCCN)C(=O)N[C@@H](C)C(N)=O	broth microdilution	TOP10	overnight, 37 °C	–	MIC50	0.45 ± 0.24 µM
CCCCN1C=C(c2ccc3ccccc3n2)C(C)c2ccccc21 (stereo not drawn)	lacZ reporter expression	VirF-independent lacZ control	3 h, 37 °C, 6.2% DMSO, together with: 1 mM IPTG	–	IC50	> 100 µM
CC[C@H](C)[C@H](NC(=O)[C@H](CCCCN)NC(=O)[C@H](CCC(=O)O)NC(=O)[C@H](CCCCN)NC(=O)[C@H](CO)NC(=O)[C@H](CCCCN)NC(=O)[C@H](CCCNC(=N)N)NC(=O)[C@H](Cc1ccccc1)NC(=O)[C@H](Cc1ccccc1)NC(=O)[C@H](CC(=O)O)NC(=O)CNC(=O)[C@H](CC(C)C)NC(=O)[C@@H](N)CC(C)C)C(=O)NCC(=O)N[C@@H](CCCCN)C(=O)N[C@@H](CCC(=O)O)C(=O)N[C@@H](Cc1ccccc1)C(=O)N[C@@H](CCCCN)C(=O)N[C@@H](CCCNC(=N)N)C(=O)N[C@H](C(=O)N[C@H](C(=O)N[C@@H](CCC(N)=O)C(=O)N[C@@H](CCCNC(=N)N)C(=O)N[C@H](C(=O)N[C@@H](CCCCN)C(=O)N[C@@H](CC(=O)O)C(=O)N[C@@H](Cc1ccccc1)C(=O)N[C@@H](CC(C)C)C(=O)N[C@@H](CCCNC(=N)N)C(=O)N[C@@H](CC(N)=O)C(=O)N[C@@H](CC(C)C)C(=O)N[C@H](C(=O)N1CCC[C@H]1C(=O)N[C@@H](CCCNC(=N)N)C(=O)N[C@H](C(=O)N[C@@H](CCC(=O)O)C(=O)N[C@@H](CO)C(=O)O)[C@@H](C)O)C(C)C)[C@@H](C)CC)C(C)C)[C@@H](C)CC	–	K-12 sample A (CGSC sample B)	–	–	MBC	2.5 µM (≈ 11.2 µg/mL)
CC(C)C[C@H](NC(=O)[C@H](C)NC(=O)[C@H](CCCCN)NC(=O)[C@H](C)NC(=O)[C@H](CC(C)C)NC(=O)[C@H](CCCCN)NC(=O)[C@H](CC(C)C)NC(=O)[C@H](Cc1c[nH]c2ccccc12)NC(=O)[C@H](CC(C)C)NC(=O)[C@H](CC(C)C)NC(=O)[C@H](C)NC(=O)[C@@H]1CCCN1C(=O)[C@H](CC(C)C)NC(=O)[C@H](CCCCN)NC(=O)[C@H](CC(C)C)NC(=O)[C@H](C)NC(=O)[C@H](CCCCN)NC(=O)[C@H](C)NC(=O)[C@H](CC(C)C)NC(=O)[C@H](CCCCN)NC(=O)[C@@H](N)CCCCN)C(=O)N[C@@H](CCCCN)C(=O)N[C@@H](CCCCN)C(=O)N[C@@H](C)C(N)=O	broth microdilution	TOP10	overnight, 37 °C	–	MIC50	0.82 ± 0.03 µM
CC[C@H](C)[C@@H]1NC(=O)[C@H](CCC(=O)O)NC(=O)[C@@H]2CSSC[C@@H]3NC(=O)[C@H](Cc4ccc(O)cc4)NC(=O)[C@@H](NC(=O)[C@@H](NC(=O)[C@H](C)N)[C@@H](C)O)CSSC[C@@H](C(=O)N[C@@H](CCCNC(=N)N)C(=O)O)NC(=O)[C@H](CSSC[C@H](NC(=O)[C@H](CCCNC(=N)N)NC(=O)CNC(=O)[C@H]([C@@H](C)O)NC(=O)[C@H](CCCNC(=N)N)NC3=O)C(=O)N[C@@H](C)C(=O)N[C@@H]([C@@H](C)O)C(=O)N[C@@H](CCCNC(=N)N)C(=O)N[C@@H](CCC(=O)O)C(=O)N[C@@H](CO)C(=O)N[C@@H](CC(C)C)C(=O)N[C@@H](CO)C(=O)NCC(=O)N[C@@H](C(C)C)C(=O)N2)NC(=O)[C@H](CC(C)C)NC(=O)[C@H](CCCNC(=N)N)NC(=O)[C@H](Cc2ccc(O)cc2)NC(=O)[C@H](CC(C)C)NC(=O)[C@H](CCCNC(=N)N)NC(=O)CNC(=O)[C@H](CO)NC1=O	antimicrobial	ATCC 25922	pH 7.4, 1% TSB	99.99% killing	lethal concentration	~4 µM
CC(C)C[C@H](NC(=O)[C@H](C)NC(=O)[C@H](CC(C)C)NC(=O)[C@H](CCCCN)NC(=O)[C@H](CC(C)C)NC(=O)[C@H](CCCCN)NC(=O)[C@@H](N)CCCCN)C(=O)N[C@@H](C)C(=O)N[C@@H](CCCCN)C(=O)N[C@@H](CC(C)C)C(=O)N[C@@H](C)C(=O)N[C@@H](CC(C)C)C(=O)N[C@@H](CC(C)C)C(=O)N[C@@H](Cc1c[nH]c2ccccc12)C(=O)N[C@@H](CCCCN)C(=O)N[C@@H](C)C(=O)N[C@@H](CC(C)C)C(=O)N[C@@H](C)C(=O)N[C@@H](CC(C)C)C(=O)N[C@@H](CCCCN)C(=O)N[C@@H](CC(C)C)C(=O)N[C@@H](CCCCN)C(=O)N[C@@H](CCCCN)C(=O)N[C@@H](C)C(N)=O	broth microdilution	NCTC 9001	overnight, 37 °C	–	MIC50	1.11 ± 0.48 µM
CC(C)C[C@H](NC(=O)[C@H](CCCNC(=N)N)NC(=O)[C@H](CCCCN)NC(=O)[C@@H](N)Cc1c[nH]c2ccccc12)C(=O)N[C@@H](CCCNC(=N)N)C(=O)N[C@@H](Cc1c[nH]c2ccccc12)C(=O)N[C@@H](CCCNC(=N)N)C(=O)N[C@@H](CCCNC(=N)N)C(=O)N[C@@H](Cc1ccccc1)C(=O)N[C@@H](Cc1ccccc1)C(=O)O	bacterial killing, colony count	BL21	1 h, pH 7, 37 °C	–	EC50	3.1 µg/mL (≈ 2 µM)
C[n+]1cc(-c2ccc3ccccc3n2)cc2ccccc21	lacZ reporter expression	VirF-independent lacZ control	3 h, 37 °C, 6.2% DMSO, together with: 1 mM IPTG	–	IC50	> 100 µM
CC[C@H](C)[C@H](N)C(=O)N[C@@H](CC(C)C)C(=O)NCC(=O)N1CCC[C@H]1C(=O)N[C@H](C(=O)N[C@@H](CC(C)C)C(=O)NCC(=O)N[C@@H](CC(C)C)C(=O)N[C@H](C(=O)N[C@@H](CO)C(=O)N[C@@H](CC(=O)O)C(=O)N[C@H](C(=O)N[C@@H](CC(C)C)C(=O)N[C@@H](CC(=O)O)C(=O)N[C@@H](CC(=O)O)C(=O)N[C@H](C(=O)N[C@@H](CC(C)C)C(=O)NCC(=O)N[C@H](C(=O)N[C@@H](CC(C)C)C(=O)N[C@@H](CS)C(=O)O)[C@@H](C)CC)C(C)C)[C@@H](C)O)C(C)C)C(C)C	–	ATCC 25922	24 h, 37 °C	–	MIC	90 µM
CC[C@H](C)[C@H](N)C(=O)N[C@@H](CC(C)C)C(=O)N1CCC[C@H]1C(=O)N[C@@H](Cc1c[nH]c2ccccc12)C(=O)N[C@@H](CCCCN)C(=O)N[C@@H](Cc1c[nH]c2ccccc12)C(=O)N1CCC[C@H]1C(=O)N[C@@H](Cc1c[nH]c2ccccc12)C(=O)N[C@@H](Cc1c[nH]c2ccccc12)C(=O)N1CCC[C@H]1C(=O)N[C@@H](Cc1c[nH]c2ccccc12)C(=O)N[C@@H](CCCNC(=N)N)C(=O)N[C@@H](CCCNC(=N)N)C(N)=O	broth microdilution	–	18 h, 30 clinical isolates	–	MIC range	0.5 to 8 µg/mL (≈ 0.262 to 4.2 µM)
CC[C@H](C)[C@H](NC(=O)CN)C(=O)N[C@@H](CCCCN)C(=O)N[C@@H](Cc1ccccc1)C(=O)N[C@@H](Cc1ccccc1)C(=O)N[C@@H](CC(C)C)C(=O)N[C@@H](CCCCN)C(=O)N[C@@H](CCCCN)C(=O)N[C@@H](CC(C)C)C(=O)N[C@@H](CCCCN)C(=O)N[C@@H](CCCCN)C(=O)N[C@@H](Cc1c[nH]cn1)C(N)=O	–	ATCC 25922	1 h, 37 °C, dividing cells in LB	–	MIC	≥ 100 µg/mL
